Assay results pooled from the literature.
Parts stem from different laboratories: compare values within a part only. Substitutions count along the parent as printed.

Block 1 — method: protein-binding microarray; form: double-stranded DNA, one strand shown; matrix: in vitro; concentration: 2540 nM top; notes: 60-bp whole probe; with: salmon DNA 0.4 mg/ml; reference: random background probes; reading: higher = stronger binding; shared flanks, not repeated: GCCTAGCAC … GTCTTGATTCGCTTGACGCTGCTG
Target: Interferon regulatory factor 3, full length, phosphomimetic (IRF3, Homo sapiens, UniProt Q14653, residues 1-427, S386D/S396D/S398D/S402D/T404D/S405D)
Residues (chain): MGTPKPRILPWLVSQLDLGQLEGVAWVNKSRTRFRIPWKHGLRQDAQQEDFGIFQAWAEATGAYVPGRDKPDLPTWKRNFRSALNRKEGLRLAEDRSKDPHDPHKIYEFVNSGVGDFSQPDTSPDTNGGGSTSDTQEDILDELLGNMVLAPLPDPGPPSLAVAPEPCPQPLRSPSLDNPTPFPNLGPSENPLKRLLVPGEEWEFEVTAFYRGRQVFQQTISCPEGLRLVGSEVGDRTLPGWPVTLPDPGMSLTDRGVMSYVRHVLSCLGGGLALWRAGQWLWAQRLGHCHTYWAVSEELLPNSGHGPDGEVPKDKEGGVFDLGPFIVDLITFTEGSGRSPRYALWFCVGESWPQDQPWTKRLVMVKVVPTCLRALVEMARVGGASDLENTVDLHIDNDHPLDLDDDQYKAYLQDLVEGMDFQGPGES
| Sequence | fitted relative affinity [z-score] |
| --- | --- |
| TCTTTTTGCTTTCTTTTATGGTGCTAG | 2.73 |
| TTAGGTTTCCTTATCCTTGAGTGCTAG | 8.02 |
| TTAGAACTGGAGTTTCGATTAGTGCTA | 2 |
| TCACTTTGGCCTCTAGGACTGTGCTAG | -0.226 |
| TTTGGTTCCCTTTTCCTTTAGTGCTAG | 7.03 |
| CTGCCTCACATTGCTAAGACGTGCTAG | -0.0208 |
| GACGATTTCAGTCTGGAGACGTGCTAG | 1.17 |
| GACGATATCAGTTTCGGGACGTGCTAG | 4.29 |
| TTAGACCTGAGTTTCGATTAGTGCTAG | 2.24 |
| TTAGGACTGCCTCTCCTTTAGTGCTAG | -0.673 |
| TTAGGTCTGCTACTGCTTTAGTGCTAG | -0.766 |
| ACCATTTTGGTTTTCTCTATGTGCTAG | 3.05 |
| CTAGGTTCCGGTTTCGGTTAGTGCTAG | 7.24 |
| GACGATTTCAGTATCGAGATGTGCTAG | 2.5 |
| TCAAGTGTTTTTCTCCTACTGTGCTAG | 0.299 |
| CTCTGCTTGTGTCTGGGCTTGTGCTAG | -0.634 |
| GACGGACTGCTATTGCTGACGTGCTAG | -0.56 |
| TTAGGTCCCGGTATCGGTTAGTGCTAG | 1.69 |
| TACGGTTTCGGACTGGGGACGTGCTAG | 4.23 |

Block 2 — target: UBE2G1 UBC core domain (UniProt P62253); method: yeast two-hybrid; matrix: yeast; notes: mostly zero background; reference: not given; reading: higher = stronger interaction
B1: TRIM52 RING domain (UniProt Q96A61); chain PMQTLQEEAVCAICLDYFKDPVSISCGHNFCRGCVTQLWSKEDEEDQNEEEDEWEEEEDEEAV
B2: RNF150 RING domain (UniProt Q9ULK6); chain DKETESDFDNCAVCIEGYKPNDVVRILPCRHLFHKSCVDPWLLDHRTCPMCKMNILKALGIP
B3: TRIM38 RING domain (UniProt O00635); chain STKKMMEEATCSICLSLMTNPVSINCGHSYCHLCITDFFKNPSQKQLRQETFCCPQCRAPFHMDSLRP
B4: TRIM15 RING domain (UniProt Q9C019); chain SLKVVHELPACTLCAGPLEDAVTIPCGHTFCRLCLPALSQMGAQSSGKILLCPLCQEEEQAETPMA
B5: UBE4A RING domain (UniProt Q14139); chain LQQQEEETYADACDEFLDPIMSTLMCDPVVLPSSRVTVDRSTIARHLLSDQTDPFNRSPLTMDQIRPNTELKEKIQRWLAERKQQKEQLE
B6: TRIM55 RING domain (UniProt Q9BYV6); chain TMDNLEKQLICPICLEMFTKPVVILPCQHNLCRKCASDIFQASNPYLPTRGGTTMASGGRFRCPSCRHEVVLDRHG
B7: RNF175 RING domain (UniProt Q8N4F7); chain LPTRSLSDNICAVCGQKIIVELDEEGLIENTYQLSCNHVFHEFCIRGWCIVGKKQTCPYCKEKVDLKRMIS
B8: RFPL2 RING domain (UniProt O75678); chain MAALFQEASSCPVCSDYLEKPMSLECGCAVCLKCINSLQKEPHGEDLLCCCSSMVSRKNKIRR
B9: RNF43 RING domain (UniProt Q68DV7); chain SGSSCSSAPVCAICLEEFSEGQELRVISCLHEFHRNCVDPWLHQHRTCPLCMFNITEGDSFS
Target sequence (chain): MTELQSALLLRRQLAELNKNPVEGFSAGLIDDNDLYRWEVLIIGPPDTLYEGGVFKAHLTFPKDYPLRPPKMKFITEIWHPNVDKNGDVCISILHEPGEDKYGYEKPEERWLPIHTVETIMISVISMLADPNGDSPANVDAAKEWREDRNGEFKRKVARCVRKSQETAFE
| Molecule | lacZ reporter activity |
| --- | --- |
| B1 (TRIM52 RING domain) | 0 |
| MANWVFCNRCFQPPHRTSCFSLTNCGHVYCDACLGKGKKNECLICKAPCRTVLLSK (RNF212 RING domain (UniProt Q495C1)) | 0 |
| B2 (RNF150 RING domain) | 0 |
| B3 (TRIM38 RING domain) | 0 |
| FLKKLEQSFMCVCCQELVYQPVTTECFHNVCKDCLQRSFKAQVFSCPACRHDLGQNYIMI (UHRF2 RING domain (UniProt Q96PU4)) | 0 |
| B4 (TRIM15 RING domain) | 0 |
| B5 (UBE4A RING domain) | 0 |
| B6 (TRIM55 RING domain) | 0 |
| B7 (RNF175 RING domain) | 0 |
| B8 (RFPL2 RING domain) | 0 |
| B9 (RNF43 RING domain) | 0 |

Block 3 — method: RNA Bind-n-Seq; form: RNA; matrix: in vitro; concentration: 365 nM; reference: no-protein control; reading: higher = stronger binding
Target: RNA binding protein fox-1 homolog 2, RRM domain, GST-SBP tag (RBFOX2, Homo sapiens, UniProt O43251-10, residues 100-194)
Notes: natural RNA segment, single round, ends assumed
Target sequence (chain): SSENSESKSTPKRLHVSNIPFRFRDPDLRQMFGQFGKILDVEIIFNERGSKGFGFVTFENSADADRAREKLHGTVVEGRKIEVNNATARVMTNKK
| Sequence | RBNS enrichment (R) |
| --- | --- |
| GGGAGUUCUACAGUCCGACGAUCUCAGAAGGCUGUCUGGCACCCAGUGUCCUAGCCAGGCCAAGUAUAUGAGAAAGGUAAGUCCAUUUUCCCCUUCAGGUCCUCAGUGGAUUACUUAACCACUGCUGUCCCUCUGGAAUUCUCGGGUGCCAA | 0.257 |
| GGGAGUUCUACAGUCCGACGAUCGGAGGGGGUCUCCAGACUCCACUGAAGCAGGAAGUCCACUGUUGUAAACUGAGUUUGCUAAAUUGGGUCCCCAGAGGAUACCAUGAGAGUGGGUAGGGCAAAAAGAGCCCUGGAAUUCUCGGGUGCCAA | 0.17 |
| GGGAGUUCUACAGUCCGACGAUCAACUCUCUCUGUGAAAAUUUAAAUUGUGUGUGUUCUAUCUUUAGAUCCCCUCCAUUUAUUUGUUUAAUUUGGGUGGUGAUUCUGAAAUGAAUACUCUCUAGGAAAUGUGCUGGAAUUCUCGGGUGCCAA | 0.399 |
| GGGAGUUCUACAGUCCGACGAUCGCUGGGUGUGUGUUUAGAGCUCUACGAAUUGUCAAUAACACAUGCUUCUCUGUCCCAGGGGUCCUAGAGAGGGCAAAUUACUAAGCAUCUCUGUAGGAUGGAGAUGAUAGUGGAAUUCUCGGGUGCCAA | 0.848 |
| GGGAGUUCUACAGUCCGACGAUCAGACCAGGUAAUGAGUGGCUGCAAGGAGUCAUAUAGCCUGGGUGUGGGUGAGGGUCUGCCUGCCUGUUUCUGUCUGGGUGUCUGAGUUCCAAAAAAUGUGUGUUGUUUGUUGGAAUUCUCGGGUGCCAA | 1.88 |
| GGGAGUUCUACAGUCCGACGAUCGGGAACAACCCUCCCCCUUUCCAUUCAUAAGUCCAAAUGUAAAUAAACGUAUGCAGAAUGUUAGCGUUCGACUGUCUGAUGUAUUGGCUUUCCUGGGCGGCCCCUGCCUUUGGAAUUCUCGGGUGCCAA | 1.07 |
| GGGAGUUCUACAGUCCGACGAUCCCUUCUCCAGCCGCCCUUCACUGCAGAGAACCGGAAGAAAACUAUGGAUAAAAUCAUUAAAGGGAAGCUGGUGCUGCCCCCCUACCUCACCCCGGAUGCCCGGGACCUUGUGGAAUUCUCGGGUGCCAA | 0.492 |
| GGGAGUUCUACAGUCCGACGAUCCGUCUUUUCAUUCCAGUCCAGUUCAGGCUGCCGUGCACUUUGUCGGAUAUAAAAUAAACCACGGGCCCGCCAUGGCGUUAGCCCUUCCUUUUGCAGUUGCGUCUGGGAAGUGGAAUUCUCGGGUGCCAA | 0.239 |

Block 4 — target: CCND2, cyclin fold, Cln2 fusion (human); method: yeast growth competition, sequencing; matrix: yeast; notes: weak parent motif; reference: not given; reading: higher = stronger binding
Starting sequence: CDC6 docking peptide (human); TLKGRRLVFDNQL
| Variant | normalised enrichment score |
| --- | --- |
| TNKGRRLVFDNQL [L2N] | -0.0571 |
| TLKRRRLVFDNQL [G4R] | 0.423 |
| TLKGRRLVFDLQL [N11L] | 0.186 |
| TQKGRRLVFDNQL [L2Q] | 0.0596 |
| TLKGRALVFDNQL [R6A] | 0.347 |
| TLHGRRLVFDNQL [K3H] | -0.152 |
| TLKGRRLVDDNQL [F9D] | 0.281 |
| TLKGRRSVFDNQL [L7S] | -0.0864 |
| VLKGRRLVFDNQL [T1V] | 0.448 |
| TLKGRRLDFDNQL [V8D] | 0.738 |
| TLKGRRLPFDNQL [V8P] | -0.0742 |
| TLKGRRLVFDNQR [L13R] | 0.195 |
| TRKGRRLVFDNQL [L2R] | 1.2 |
| TLKGRRLVFDNKL [Q12K] | -0.0154 |
| THKGRRLVFDNQL [L2H] | 0.1 |
| TLKGRMLVFDNQL [R6M] | 0.0772 |

For quick reference, copied from above (block 3):
| Sequence | RBNS enrichment (R) |
| --- | --- |
| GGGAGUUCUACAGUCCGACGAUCGGAGGGGGUCUCCAGACUCCACUGAAGCAGGAAGUCCACUGUUGUAAACUGAGUUUGCUAAAUUGGGUCCCCAGAGGAUACCAUGAGAGUGGGUAGGGCAAAAAGAGCCCUGGAAUUCUCGGGUGCCAA | 0.17 |
| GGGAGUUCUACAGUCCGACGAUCAACUCUCUCUGUGAAAAUUUAAAUUGUGUGUGUUCUAUCUUUAGAUCCCCUCCAUUUAUUUGUUUAAUUUGGGUGGUGAUUCUGAAAUGAAUACUCUCUAGGAAAUGUGCUGGAAUUCUCGGGUGCCAA | 0.399 |
| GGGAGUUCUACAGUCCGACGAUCGCUGGGUGUGUGUUUAGAGCUCUACGAAUUGUCAAUAACACAUGCUUCUCUGUCCCAGGGGUCCUAGAGAGGGCAAAUUACUAAGCAUCUCUGUAGGAUGGAGAUGAUAGUGGAAUUCUCGGGUGCCAA | 0.848 |
| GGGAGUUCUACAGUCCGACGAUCAGACCAGGUAAUGAGUGGCUGCAAGGAGUCAUAUAGCCUGGGUGUGGGUGAGGGUCUGCCUGCCUGUUUCUGUCUGGGUGUCUGAGUUCCAAAAAAUGUGUGUUGUUUGUUGGAAUUCUCGGGUGCCAA | 1.88 |
| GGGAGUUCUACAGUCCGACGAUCGGGAACAACCCUCCCCCUUUCCAUUCAUAAGUCCAAAUGUAAAUAAACGUAUGCAGAAUGUUAGCGUUCGACUGUCUGAUGUAUUGGCUUUCCUGGGCGGCCCCUGCCUUUGGAAUUCUCGGGUGCCAA | 1.07 |
| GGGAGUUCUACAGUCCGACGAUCCCUUCUCCAGCCGCCCUUCACUGCAGAGAACCGGAAGAAAACUAUGGAUAAAAUCAUUAAAGGGAAGCUGGUGCUGCCCCCCUACCUCACCCCGGAUGCCCGGGACCUUGUGGAAUUCUCGGGUGCCAA | 0.492 |
